Assay results from different studies.
Compare with care: the assays were run in different laboratories. Converted amounts (≈) assume the structure as drawn.
Organism: Staphylococcus aureus

For `O=C1c2ccccc2C(=O)c2c1ccc1c2C(C(=O)Nc2ccccc2Cl)C(=O)C1c1ccccc1` (stereo not drawn), the MIC was 64 µg/mL (≈ 130 µM) (microbial growth).
`CNC(CC(C)C)C(=O)NC1C(=O)NC(CC(N)=O)C(=O)NC2C(=O)NC3C(=O)NC(C(=O)NC(C(=O)O)c4cc(O)cc(O)c4-c4cc3ccc4O)C(O)c3ccc(c(Cl)c3)Oc3cc2cc(c3OC2OC(CO)C(O)C(O)C2OC2CC(C)(NC(=O)CCCC[N+](C)(C)C)C(O)C(C)O2)Oc2ccc(cc2Cl)C1O` (stereo not drawn) has an MIC of 128 µg/mL (agar dilution; MRSA clinical isolate MRSA4).
`CCCCN(CCCC)CC(O)COc1c2ccoc2c(OC)c2oc(CC)cc(=O)c12` (stereo not drawn) has an MIC of 256 µg/mL (≈ 575 µM) (microbial growth, broth dilution; ATCC25; 19 h).
The MIC of `C[n+]1ccc(/C=C2\Sc3ccccc3N2CCCN2CCCC2)c2ccccc21` is reported as 32 µg/mL (microbial growth, broth dilution; ATCC29213).
`CCCCCCCCCCCCCCN1C(=O)/C(=N\NC(=N)N)c2cc(C)ccc21` gave an MIC of greater than 192 µg/mL (broth microdilution; 29213; 18 h, 37 °C).
`O=C(NCCNCCO)c1cn(Cc2cccc(Br)c2)c2cc(Cl)c(OCc3ccc(C(F)(F)F)cc3)cc2c1=O` gave an MIC of less than 0.25 µg/mL (ATCC 43300 MRSA; ≥80% growth inhibition).
`CC1C=CC=CC(C)C2C=CC3CC(C)(O)C(O)C(C)C3C2C(=O)C(Cl)(Cl)C(=O)C(C)C(=O)O1` (stereo not drawn) has an MIC of 4 to 8 µg/mL (≈ 7.79 to 15.6 µM) (microbial growth, broth dilution; NEWMAN).
With `CN(Cc1cc(N(C)C)c2c(c1O)C(=O)C1=C(O)[C@]3(O)C(=O)C(C(N)=O)=C(O)[C@@H](N(C)C)[C@@H]3C[C@@H]1C2)CC(C)(C)C` the MIC was greater than 64 µg/mL (MRSA 5, Tet M, 50% human serum).
The MIC of `CCCCO[C@H]1[C@H](O)[C@@H](N)[C@@H](O[C@H]2[C@H](O[C@@H]3O[C@H](CO)[C@@H](O[C@H]4O[C@@H](CN)[C@@H](O)[C@H](O)[C@H]4N)[C@H]3O)[C@@H](O)[C@H](N)C[C@@H]2N)O[C@@H]1CO` is reported as 8 to 16 µg/mL (≈ 11.9 to 23.8 µM) (broth microdilution; MRSA isolate AG 038).
For `COc1cc(Cc2cnc(N)nc2N)cc(/C=C/C(=O)N2N=Cc3ccccc3C2c2ccccc2)c1OC` (stereo not drawn), the MIC was 0.125 to 0.25 µg/mL (≈ 0.24 to 0.48 µM) (microbial growth, broth dilution; ATCC29213; pH 7).
`CC1C(=O)NC(=O)N1/N=C/c1ccc([N+](=O)[O-])o1` (stereo not drawn) has an MIC of 25 µg/mL (≈ 99.1 µM) (microbial growth, broth dilution; ATCC29213; 18 h).
`CN(C)c1cc(CN2CCc3ccccc3C2)c(O)c2c1C[C@H]1C[C@H]3[C@H](N(C)C)C(O)=C(C(N)=O)C(=O)[C@@]3(O)C(O)=C1C2=O` gave an MIC of greater than 64 µg/mL (MRSA 5, Tet M, 50% mouse serum).
`COC(Cn1ccn(C)[c]1=[Ag][O]C(C)=O)c1ccccc1` (stereo not drawn) has an MIC of 5 µg/mL (broth dilution; ATCC 23235; 18 h, 37 °C).
For `CN(C)c1cc(CNCc2ccco2)c(O)c2c1C[C@H]1C[C@H]3[C@H](N(C)C)C(O)=C(C(N)=O)C(=O)[C@@]3(O)C(O)=C1C2=O`, the MIC was 1 µg/mL (≈ 1.76 µM) (microbial growth, broth dilution).
`CCc1ccc(NC(=O)CSc2nc3ccccc3c(=O)n2-c2ccc(S(N)(=O)=O)cc2)cc1` has an MIC of 10 µg/mL (≈ 20.2 µM) (methicillin-resistant; 24 h, 37 °C).
